Published values pooled from the literature.
Protocols differ between the studies behind these lines. Several values in a cell are separate wells, animals, samples, runs or records. ± gives the spread as reported.

CCCN1CCN(c2ccc3[nH]c(-c4ccc5[nH]c(-c6cc(OC)c(OC)c(OC)c6)nc5c4)nc3c2)CC1 has a growth percent of 100% (NCI/ADR-RES; cell growth, NCI-60 SRB; 10 µM, 48 h).
Cc1cccc(-c2[nH]c(CNc3ccccc3F)nc2-c2ccc3ncnn3c2)n1 — result for “surface marker level”: 54.6% (RPMI-8226; flow cytometry, refers to: CD108; concentration not given; relative to: comparator compound alone).
CC(C)NCC(O)c1ccc(O)c(O)c1 (centres unmarked) has a sarcomere length of 1.76 µm (mouse ventricular cardiomyocytes; dose not given, 0.211 s).
OC1CCN(c2ccc(/C=N/NC(=S)NC3CCCCC3)cc2)CC1 gave a selectivity ratio of 3.8 (BEAS-2B and A549; MTT; relative to: IC50 BEAS-2B over IC50 A549).
The growth inhibition of COc1ccc2c(N(C)c3ccc(/C(C)=N/OCCN)cc3)c3c(Cl)coc3nc2c1 is reported as 80 to 90% and 70 to 80% (LNCaP C-81; trypan blue exclusion; 1 µM, 72 h, SR conditions).
CC#CC(=O)N1CCC[C@H]1c1nc(-c2ccc(C(=O)Nc3ccccn3)cc2)c2c(N)nccn12 has a maximum inhibition of 81.1% (Ramos; calcium flux, FLIPR; 4 h preincubation).
For CCOC(=O)CSc1nc(-c2ccc(Cl)cc2)c2c(NC(=O)c3ccccc3)nnc-2[nH]1, the cell growth was 100% (KM12; SRB; 10 µM, NCI60 single-dose screen, colon cancer; relative to: untreated).
The maximum inhibition of C=CC(=O)N1CCC([C@@H]2CCNc3c(C(N)=O)c(-c4ccc(Oc5ccccc5)cc4)nn32)CC1 is reported as 95.8% (Ramos; calcium flux, FLIPR; 1 h preincubation).
C=CCNC1=C2C[C@@H](C)C[C@H](OC)[C@H](O)[C@@H](C)/C=C(\C)[C@H](OC(N)=O)[C@@H](OC)/C=C\C=C(/C)C(=O)NC(=CC1=O)C2=O has a fibulin-3 level of -36% (ARPE-19 HiBiT fibulin-3; HiBiT luminescence; 1.66 µM).
The inhibition of C=CC(=O)N1CCC[C@@H](n2nc(-c3ccc(Oc4ccccc4)cc3)c3c(N)ncnc32)C1 is reported as 98.6% (TMD8 RAC2 knockout; calcium flux, FLIPR; concentration not given, 2 h preincubation).
The phospho ratio of CSc1cc(Oc2ccnc3[nH]c(=O)cnc23)ccc1NC(=O)Nc1cc(C(C)(C)C)nn1-c1ccccc1 is reported as 0.57 (patient-derived cells; RPPA, refers to: phosphorylated SAPK/JNK; 1 µM, 4 h, mean of three patients; relative to: DMSO).
Clc1ccc(C2(c3ccc(-c4cn[nH]c4)cc3)CCNCC2)cc1 — result for “relative cell number”: 76.2% (SK-OV-3; ATP; 3D gellan gum culture; 1 µM, 4 days; relative to: untreated).
CCOCc1sc(NCc2ncccn2)nc1-c1ccccn1 gave a selectivity ratio of less than 2 (THLE-2; relative to: CC50 THLE-2 over Huh-7).
CC(C)(C)c1cnc(CSc2cnc(NC(=O)C3CCNCC3)s2)o1 gave a beat amplitude of 102% (iCell Cardiomyocytes (hiPSC-derived); xCELLigence Cardio impedance; concentration not given, 2 h; relative to: control).
COc1cc([C@@H]2c3cc4c(cc3[C@@H](O[C@@H]3O[C@@H]5CO[C@@H](C)O[C@H]5[C@H](O)[C@H]3O)[C@H]3COC(=O)[C@H]23)OCO4)cc(OC)c1O has an apoptotic cells of 16.1 ± 3.15% (DF-1; annexin V staining; 5 µM, 72 h).
For CCCCCCNC(=O)n1cc(F)c(=O)[nH]c1=O, the ceramide level was 4.08 ± 0.34 pmol/mg protein (SW-403; LC-MS, refers to: Cer(d18:1/14:0); 0.3 µM).
CCC(=O)N1CCC(COCC(=O)N2CCN(c3nc(-c4cnc(N)nc4C(F)F)nc(N4CCOC[C@@H]4C)n3)CC2)CC1 gave an IC50 of 62.1 nM (T47D; S6 phosphorylation, inhibitor, in-cell western, refers to: phospho-S6 Ser235/236; 2 h).
Under “relative cell number”, CCn1c(-c2nonc2N)nc2cncc(CNC3CCNCC3)c21 is recorded as 119% (SK-OV-3; ATP; 2D monolayer culture; 0.01 µM, 4 days; relative to: untreated).
O=C(c1ccc(/C=C/c2n[nH]c3ccccc23)cc1)N1CCNCC1 gave an ATP level of 96.7% (iCell Cardiomyocytes (hiPSC-derived); CellTiter-Glo; concentration not given, 24 h; relative to: control).
With O=C(NO)c1ccc(Cn2cnc3c(Nc4cccc([N+](=O)[O-])c4)ncnc32)cc1 the sensitizing concentration was 2.5 µM (HEL venetoclax-resistant cells; cell viability, MTT; 48 h, with: venetoclax).
CCN(CC)CCNC(=O)c1c(C)[nH]c(/C=C2\C(=O)Nc3ccc(F)cc32)c1C gave a cell index of 106% (iCell Cardiomyocytes (hiPSC-derived); cellular impedance; concentration not given, 24 h; relative to: control).
Cn1cc(-c2ccc(F)c(C(F)(F)F)c2)nc1C1CCN(c2ncnc3[nH]ncc23)CC1: “relative cell number” 95.2% (SK-OV-3; ATP; 1 µM, 4 days, 3D gellan gum culture; relative to: untreated).
Nc1ncnc2c1ncn2[C@@H]1O[C@H](CO)[C@@H](O)[C@H]1O: “T cell proliferation” 68.9 a.u. and 68.6 a.u. and 67.8 a.u. (activated human T cells; 1 µM; higher = more proliferation).
For O=C(O)c1ccc(-c2c[nH]c3ncc(-c4ccccc4)cc23)cc1C1CCCC1, “relative cell number” read 107% (SK-OV-3; ATP; 10 µM, 4 days, 3D U-bottom low-attachment; relative to: untreated).
The maximum inhibition of CC(=O)c1c(C)c2cnc(Nc3ccc(N4CCNCC4)cn3)nc2n(C2CCCC2)c1=O is reported as 73.5% (MCF7/luciferase, wild type; cell proliferation).
C=CCn1c(=O)c2cnc(Nc3ccc(N4CCN(C)CC4)cc3)nc2n1-c1ccc2c(n1)[C@@](O)(CC)CC2 has a γH2AX-positive cells of 18.1% (MDA-MB-231; flow cytometry; 1 µM, 24 h).
For Cc1ccc(-n2nc(C(C)(C)C)cc2NC(=O)Nc2ccc(OCCN3CCOCC3)c3ccccc23)cc1, the ATP level was 97.6% (iCell Cardiomyocytes (hiPSC-derived); CellTiter-Glo; concentration not given, 24 h; relative to: control).
The Emax of COc1cc(N2CCC(N3CCN(C)CC3)CC2)ccc1Nc1ncc(Cl)c(Nc2ccccc2P(C)(C)=O)n1 is reported as 100% (Ba/F3 EML4-ALK variant 1 S1206F; cell viability).
CC(C)C[C@@H](C=O)NC(=O)[C@H](CC(C)C)NC(=O)[C@H](CC(C)C)NC(=O)OCc1ccccc1 gave an FLuc activity of 1.14 (HEK293; refers to: CD4 signal peptide-FLuc reporter; concentration not given, 3 h, time-course chase, unit not given, with: cycloheximide; relative to: untreated).
Cc1cccc(C)c1NC(=O)CN1CCCC1=O — result for “maximal ROS response”: -89.8 ± 11.9% (HepaRG; ROS-Glo).
With C[C@@H]1CN(C(=O)c2ccc(NC(=O)c3cc(O[C@H](C)c4c(Cl)ccc(F)c4Cl)c(N)nn3)cc2)C[C@H](C)N1 the Emax was 80% (KARPAS-299 (NPM1-ALK); cell viability).
With CCn1cc(-c2cc(Cn3ccnc3)cc3c2CCN([C@H](c2cc(OC)ccn2)C2CC2)C3=O)c(C(F)(F)F)n1 the EC50 was 78.9 nM (CAL-120; cell growth, inhibitor; 120 h).
C=Cc1c2[n-]c(c1C)/C=c1\[n-]/c(c(C)c1C=C)=C\c1[n-]c(c(CCC(=O)O)c1C)/C=c1\[n-]c(c(C)c1CCC(=O)O)=C2.[Sn+4] gave a fold change of 1.53 (SH-SY5Y; RNA-seq, refers to: RFTN1 mRNA; 5 µM, 5 h; relative to: untreated cells).
CC1(C)CNc2cc(NC(=O)c3cccnc3NCc3ccncc3)ccc21 gave an ATP level of 105% (iCell Cardiomyocytes (hiPSC-derived); CellTiter-Glo; concentration not given, 24 h; relative to: control).
The EC50 of CCn1cc(-c2cc(Cn3ccoc3=N)cc3c2CCN([C@@H](C)c2cc(OC)ccn2)C3=O)c(C(F)(F)F)n1 is reported as 489 nM (CAL-120; cell growth, inhibitor; 120 h).
Cn1cc(-c2ccc(-c3cncc(Cl)c3N3CCC4(CCNC4=O)CC3)cc2)cn1 — result for “log2 fold change”: 2.09 (COLO 205; gene expression, microarray, refers to: CAPG mRNA; concentration not given, 2 h; relative to: untreated cells).
C=CC(=O)N1CCC[C@@H](c2ccc(C(N)=O)c3[nH]ccc23)C1 has a maximum inhibition of 51.4% (Ramos; calcium flux, FLIPR; 1 h preincubation).
With COc1ccc(C[C@@H]2c3cc(Oc4cc(C[C@@H]5c6cc(O)c(OC)cc6CCN5C)ccc4O)c(OC)cc3CCN2C)cc1 the inhibition was 17 ± 1% (3T3-L1; adipocyte lipid accumulation, Nile Red staining; 2.5 µM).
COc1cnc2cccc(N3CCc4c(cc(Cn5ccnc5C)cc4-c4cn(C)nc4C(F)(F)F)C3=O)c2c1 gave an EC50 of greater than 30000 nM (CFPAC-1; cell growth, inhibitor; 120 h).
c1ccc2[nH]ccc2c1 — result for “mRNA level, LS mean”: 12 counts per million (HCT-8; RNA-seq, refers to: ISL2; concentration not given).
O=c1ncccn1[C@@H]1O[C@H](CO)[C@@H](O)[C@H]1O gave an apoptotic cells of roughly 7 (MEC1; caspase-3/7 activation; concentration not given, 48 h pretreatment, maximum, any combination, unit not given, with: external beam irradiation 1 and 2 Gy; relative to: control).
For C[S+]([O-])c1ccc(-c2nc(-c3ccncc3)c(-c3ccc(F)cc3)[nH]2)cc1 (centres unmarked), the beat rate was 95.7% (iCell Cardiomyocytes (hiPSC-derived); xCELLigence Cardio impedance; concentration not given, 2 h; relative to: control).
O=C(/C=C/C=C/C=C/C1CCCCC1)NC1=C[C@@](O)(/C=C/C=C/C=C/C(=O)NC2=C(O)CCC2=O)[C@@H]2O[C@@H]2C1=O has a GI50 of 13100 nM (cal29; cell growth, inhibitor, CellTiter-Glo luminescence; 78 h; relative to: day 0 cell count).
Under “cleaved caspase-3 and PARP”, CC(C)(C)c1cnc(CSc2cnc(NC(=O)C3CCN(C(=O)CCCCCCCN4Cc5cc6c(cc5C4)C(=O)N(C4CCC(=O)NC4=O)C6=O)CC3)s2)o1 (centres unmarked) is recorded as “increased” (TC-71; Western blot; concentration not given, 24 h).
With Cn1cc(-c2ccc3nnc(Sc4ccc5ncccc5c4)n3n2)cn1 the beat rate was 105% (iCell Cardiomyocytes (hiPSC-derived); xCELLigence Cardio impedance; concentration not given, 2 h; relative to: control).
C[C@H](Nc1ccc2c(c1)OCCn1cc(N3C(=O)OC[C@H]3C(F)F)nc1-2)C(N)=O: “Hill coefficient GR curve” 0.636 (Detroit 562; CellTiter-Glo; 120 h).
CCc1cnc(N2CCC(c3nc(COc4ccc(-n5cnnn5)cc4)cs3)CC2)nc1 — result for “log2 fold change”: -0.176 (HEK293T; RNA-seq, refers to: SERPINH1 mRNA; 10 µM, 6 h; relative to: vehicle).
COc1ccc(C(=O)c2ncnc3cc(OC)c(OC)cc23)cc1 has an inhibition of 11% (A549; mitochondrial oxygen consumption, Seahorse XF96; 10 µM).
Cc1cc(Nc2ncc(Cl)c(Nc3ccccc3S(=O)(=O)C(C)C)n2)c(OC(C)C)cc1C1CCNCC1: “log2 fold change” -2.94 (CLB-GE; phosphoproteomics LC-MS/MS, refers to: MAP1A phosphorylation; 200 nM, 60 min; relative to: untreated).
The Emax of FC(F)(F)Oc1ccc(CNc2ccc3nc(COCc4ccccc4)[nH]c3c2)cc1 is reported as 20% (sample A patient iPSC NPCs; cell protection, MTS; up to 100 µM, 24 h).
For COc1ccc2ncnc(Cc3cccc(-c4ccccc4)c3)c2c1, the inhibition was 63% (A549; mitochondrial oxygen consumption, Seahorse XF96; 10 µM).
Cc1ccc(Nc2nccc(N(C)c3ccc4c(C)n(C)nc4c3)n2)cc1S(N)(=O)=O has a beat amplitude of 104% (iCell Cardiomyocytes (hiPSC-derived); xCELLigence Cardio impedance; concentration not given, 2 h; relative to: control).
COc1cc(-c2ccccc2)ncc1C(=O)Nc1ccc2c(=O)[nH]c(-c3ccc(C(C)(C)O)cc3)nc2c1 has an EC50 of 334 nM (Apc Q1405X mutant organoids; organoid area, live-cell imaging; mouse small intestinal organoids; 144 h, Tnks1 genotype Tnks1+/-).

A few entries again:
COc1cc(-c2ccccc2)ncc1C(=O)Nc1ccc2c(=O)[nH]c(-c3ccc(C(C)(C)O)cc3)nc2c1 has an EC50 of 334 nM (Apc Q1405X mutant organoids; organoid area, live-cell imaging; mouse small intestinal organoids; 144 h, Tnks1 genotype Tnks1+/-).
COc1cc([C@@H]2c3cc4c(cc3[C@@H](O[C@@H]3O[C@@H]5CO[C@@H](C)O[C@H]5[C@H](O)[C@H]3O)[C@H]3COC(=O)[C@H]23)OCO4)cc(OC)c1O has an apoptotic cells of 16.1 ± 3.15% (DF-1; annexin V staining; 5 µM, 72 h).
CC(C)C[C@@H](C=O)NC(=O)[C@H](CC(C)C)NC(=O)[C@H](CC(C)C)NC(=O)OCc1ccccc1 gave an FLuc activity of 1.14 (HEK293; refers to: CD4 signal peptide-FLuc reporter; concentration not given, 3 h, time-course chase, unit not given, with: cycloheximide; relative to: untreated).
